Measurements gathered from unrelated publications.
Every numbered part comes from another study and shows a few of its results, in no order.

Sample 1
Target: Interferon regulatory factor 7, full length, phosphomimetic (IRF7, Homo sapiens, UniProt Q92985, residues 1-503, S471D/S472D/S475D/S476D/S477D/S483D/S484D/S487D)
Method: protein-binding microarray
Molecule type: double-stranded DNA, one strand shown
Matrix: in vitro
Concentration: 2200 nM top
Setting: 60-bp whole probe
With: salmon DNA 0.4 mg/ml
Baseline: random background probes
Direction: higher = stronger binding
Shared flanks, not repeated: GCCTAGCAC … GTCTTGATTCGCTTGACGCTGCTG
Residues (chain): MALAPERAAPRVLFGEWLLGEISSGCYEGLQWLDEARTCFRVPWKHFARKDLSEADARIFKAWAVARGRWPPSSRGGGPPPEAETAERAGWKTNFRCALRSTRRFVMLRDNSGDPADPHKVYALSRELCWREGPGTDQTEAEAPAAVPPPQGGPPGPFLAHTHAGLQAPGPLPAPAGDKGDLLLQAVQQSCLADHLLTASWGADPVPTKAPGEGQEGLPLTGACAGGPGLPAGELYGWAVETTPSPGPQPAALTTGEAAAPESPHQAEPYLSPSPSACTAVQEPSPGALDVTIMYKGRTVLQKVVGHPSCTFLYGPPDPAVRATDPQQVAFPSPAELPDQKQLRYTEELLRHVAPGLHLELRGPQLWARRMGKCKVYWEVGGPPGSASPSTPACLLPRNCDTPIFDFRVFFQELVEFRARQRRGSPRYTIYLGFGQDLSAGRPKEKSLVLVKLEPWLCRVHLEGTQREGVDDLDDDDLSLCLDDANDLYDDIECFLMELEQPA
Oligonucleotide | fitted relative affinity [z-score]
GTTTTTTAAAGTTTCAGTGAGTGCTAG | 0.546
TTAGGTTTCGGTTTCGGTTTGTGCTAG | 20.1
AAACGGATGATCTCTCTGGGCGTGCTA | -0.228
GACGGACTGGGTCTCGGAACGTGCTAG | -0.71
TCAAAAATGGAAACTCGTACTGTGCTA | -0.423
TCATTTTACTTTCTGAAACTGTGCTAG | 3.72
GACGATTTCAGTTCCGAGACGTGCTAG | 1.81
CACTCCACCTCTGTGCTCTTGTGCTAG | 1.4
GACGATTTCGGGTAGCGAGACGTGCTA | 2.23
TTAGATTTCGGGTTTCTATTAGTGCTA | 4.61

Sample 2
Target: Histone acetyltransferase KAT6A, both winged helices, GST fusion (KAT6A, Homo sapiens, UniProt Q92794, residues 1-181)
Method: protein binding microarray
Molecule type: double-stranded DNA, one strand shown
Matrix: in vitro
Concentration: not given
Setting: 8-mer, flanks averaged, mean of 2 arrays, mostly near background
Baseline: not given
Direction: higher = stronger binding
Construct (chain): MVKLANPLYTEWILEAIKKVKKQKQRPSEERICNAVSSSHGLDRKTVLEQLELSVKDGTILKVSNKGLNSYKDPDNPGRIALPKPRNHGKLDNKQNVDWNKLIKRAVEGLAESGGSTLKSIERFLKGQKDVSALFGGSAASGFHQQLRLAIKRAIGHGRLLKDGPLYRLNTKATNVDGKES
Oligonucleotide | E-score
GAAAGGTC | 0.0376
CTACTGCC | 0.00432
CTCCTCAA | -0.0938
ATACAGAT | -0.101
ACTAGCGC | 0.291
GAGGTATA | -0.184
CAGAGTGG | -0.223
CGTGTTGA | -0.0374
AGCGCTAC | 0.33

Sample 3
Target: Sal-like protein 4, full length isoform A (SALL4, Homo sapiens, UniProt Q9UJQ4, residues 1-1053)
Sequence of UniProt Q9UJQ4 (whole entry, looked up): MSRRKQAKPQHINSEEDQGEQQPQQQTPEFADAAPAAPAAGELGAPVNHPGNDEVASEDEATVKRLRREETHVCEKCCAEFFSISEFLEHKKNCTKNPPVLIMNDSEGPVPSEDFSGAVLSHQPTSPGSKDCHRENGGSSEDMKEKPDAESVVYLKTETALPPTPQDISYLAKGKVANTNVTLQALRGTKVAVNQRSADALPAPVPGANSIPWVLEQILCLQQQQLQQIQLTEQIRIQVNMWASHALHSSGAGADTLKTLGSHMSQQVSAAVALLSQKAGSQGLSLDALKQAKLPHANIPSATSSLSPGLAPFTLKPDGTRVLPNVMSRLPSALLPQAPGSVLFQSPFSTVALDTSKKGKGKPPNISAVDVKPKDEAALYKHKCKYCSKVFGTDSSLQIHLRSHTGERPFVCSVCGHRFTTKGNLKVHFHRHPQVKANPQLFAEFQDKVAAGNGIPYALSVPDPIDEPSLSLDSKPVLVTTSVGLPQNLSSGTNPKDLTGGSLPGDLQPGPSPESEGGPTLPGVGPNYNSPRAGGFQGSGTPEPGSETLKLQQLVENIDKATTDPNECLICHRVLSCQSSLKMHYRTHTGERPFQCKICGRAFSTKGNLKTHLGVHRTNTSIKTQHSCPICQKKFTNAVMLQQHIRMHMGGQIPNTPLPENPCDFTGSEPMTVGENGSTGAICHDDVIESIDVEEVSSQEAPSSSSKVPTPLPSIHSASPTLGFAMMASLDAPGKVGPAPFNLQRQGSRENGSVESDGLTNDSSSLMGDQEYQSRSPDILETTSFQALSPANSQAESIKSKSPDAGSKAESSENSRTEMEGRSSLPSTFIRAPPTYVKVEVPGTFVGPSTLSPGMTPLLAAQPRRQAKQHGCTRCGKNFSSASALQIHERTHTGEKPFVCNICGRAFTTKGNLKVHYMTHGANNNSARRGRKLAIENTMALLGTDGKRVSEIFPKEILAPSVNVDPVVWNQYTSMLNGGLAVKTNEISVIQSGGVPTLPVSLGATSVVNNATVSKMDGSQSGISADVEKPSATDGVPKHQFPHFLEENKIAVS
Method: universal PBM
Molecule type: double-stranded DNA, one strand shown
Matrix: in vitro
Concentration: 600 nM
Setting: 8-mer, flanks averaged, mean of replicates
Direction: higher = stronger binding
Oligonucleotide | E-score
CTGGACCC | -0.334
GCCGCTCC | -0.348
CCGACGCC | -0.342
CATGTCTC | 0.116
GGCACAAA | 0.0008
AACTTACT | 0.00955

Mixed results
Substance | target | assay | system | conditions | scale | quantity | result
PhoQ, residues 284 288 289 292 302 303 SVTLVV | PhoP, residues 12 14 15 18 19 NHTVL (Escherichia coli, UniProt P23836) | Sort-seq, measured: YFP reporter | E. coli | PhoQ-PhoP variant library, with: 10 µM Mg2+ | baseline: high Mg2+ state, higher = stronger signaling | fold induction | 1.37

Excerpt of the above (sample 2):
Oligonucleotide | E-score
CTCCTCAA | -0.0938
GAAAGGTC | 0.0376
ACTAGCGC | 0.291
GAGGTATA | -0.184
